Measured values of several laboratories.
Every numbered part comes from another study and shows a few of its results, in no order.

Block 1 — method: protein-binding microarray; molecule type: double-stranded DNA, one strand shown; sample: in vitro; tested at: 0.8 µM; notes: whole 60-bp probe, no competitor; reading: higher = stronger binding; constant ends, left off below: … GTCTTGATTCGCTTGACGCTGCTG
Target: Centromere-binding protein 1, full length, N-terminal tag (CBF1, Saccharomyces cerevisiae, UniProt P17106, residues 1-351)
Sequence of UniProt P17106 (whole entry, looked up): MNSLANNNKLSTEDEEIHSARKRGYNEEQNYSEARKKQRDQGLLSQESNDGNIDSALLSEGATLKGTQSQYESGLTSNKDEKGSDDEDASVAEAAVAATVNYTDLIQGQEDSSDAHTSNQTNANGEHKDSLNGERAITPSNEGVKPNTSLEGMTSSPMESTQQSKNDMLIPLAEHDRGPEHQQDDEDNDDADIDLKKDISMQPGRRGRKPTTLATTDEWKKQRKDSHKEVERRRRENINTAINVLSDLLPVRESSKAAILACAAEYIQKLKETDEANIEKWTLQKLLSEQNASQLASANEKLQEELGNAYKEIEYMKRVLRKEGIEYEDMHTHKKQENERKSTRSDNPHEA
Strand | fluorescence intensity
GAATTTTGCATTTGTCACACCACATATTTAAAATAG | 762 a.u.
GAAAAACATGCTCATATGATTATCATGAAAGCATAG | 597 a.u.
CTATCTGTAAGCCCCTTCGTGATATTTCAAGGTTTC | 551 a.u.
TGTACGAAGCTATACCTGACCTATATAGTAGTTAGG | 528 a.u.
CTATTATGTGAAGATTACGTGCTATATATACTTTTC | 557 a.u.
CTAGAAATCCTGAAGCATCAGAACATCGCAAACTTC | 493 a.u.

Block 2 — method: protein binding microarray; molecule type: double-stranded DNA, one strand shown; sample: in vitro; tested at: not given; baseline: not given; reading: higher = stronger binding
Target: Histone acetyltransferase KAT6A, winged helix 2, GST fusion (KAT6A, Homo sapiens, UniProt Q92794, residues 85-181)
Notes: 8-mer, flanks averaged, mean of 2 arrays, mostly near background
Target sequence (chain): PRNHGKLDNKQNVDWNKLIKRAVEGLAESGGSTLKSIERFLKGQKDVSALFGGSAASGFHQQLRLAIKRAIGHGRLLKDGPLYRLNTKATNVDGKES
Strand | E-score
GATTTAAC | -0.0521
TCATCAAA | 0.0344
CGGGCGGC | 0.157
ACGTCGCA | 0.00473
GCATATGC | 0.0589
GACACTAC | -0.0165

Block 3 — method: RNA Bind-n-Seq; molecule type: RNA; sample: in vitro; tested at: 200 nM; notes: whole 134-nt RNA, ends assumed; added: 150 mM KCl; baseline: input library; reading: higher = stronger binding
Target: Fragile X messenger ribonucleoprotein 1, C-terminal low-complexity region (Fmr1, Mus musculus, UniProt P35922)
Constant ends, left off below: GGGAGUUCUACAGUCCGACGAUC … UGGAAUUCUCGGGUGUCAAGG
Strand | log2 enrichment
CCUCAAGUCCUGUGCUACACAUCGUAUGUACCGAAUCGGAAGGAAGGGGAAGGAAAGUAUUAUGUUACGCCGUUCGGAUCUGCACUUCCA | -0.112
ACCAUGCAGGUGGGUAUCUUUGGGAAGUGGGGCAAGGGGGGGAUAGGGAGGGGGGUAACACUUUGGGAACAGGUGGUCCCAGGUCGUUUC | 0.635
UGGCCCUGGUGGCAUGCGGGGAGGAAGAGGUGGCCUCAUGGAUCGUGGUGGUCCCGGUGGAAUGUUCAGAGGUGGCCGUCGUGGAGACAG | -0.0956
GUCCUGUGCUACACAUCGUAUGUACCGAAUCAAACCCCCCCAAACCCAAACCCCCAAAAAAGUAUUAUGUUACGCCGUUCGGAUCUGCAC | 0.147
GCAGGGAGUAAAAACAAAUGGAAAUGCUUCGGAUAGUGGCAGGGGUGGGGGUUGCUAAGGAAAGGGUGGGAUGGGAGUGGGUAAAGAGUU | 0.387
GCAGGAAGUAAAAACAAAUGGAGAUGCUUCGGAUAGUGGCAGGGGUGGGGGUUGCUAAGGAAAGGGUGGGAUGGGAGUGGGUAAAGAGUU | 0.317
CACAGACAACACGCACCCACACAGACACAGAGGGAAGGGGUUGGGAUGGGGACAGGGUGCACAGCAGGGCGGGGUAGUACCCCAGCCCCU | 1.37

Other studies, line by line
Molecule | target | assay | test system | setting | how to read | measurement | value
PhoQ, residues 284 288 289 292 302 303 TAVSDG | PhoP, residues 12 14 15 18 19 STWGI (Escherichia coli, UniProt P23836) | Sort-seq, item: YFP reporter | E. coli | PhoQ-PhoP variant library, added: 10 µM Mg2+ | baseline: high Mg2+ state, higher = stronger signaling | fold induction | 2.14

Excerpt of the above (block 3):
Strand | log2 enrichment
GCAGGGAGUAAAAACAAAUGGAAAUGCUUCGGAUAGUGGCAGGGGUGGGGGUUGCUAAGGAAAGGGUGGGAUGGGAGUGGGUAAAGAGUU | 0.387
ACCAUGCAGGUGGGUAUCUUUGGGAAGUGGGGCAAGGGGGGGAUAGGGAGGGGGGUAACACUUUGGGAACAGGUGGUCCCAGGUCGUUUC | 0.635
